Assay results collected from several papers.
Each numbered part is a random draw from the data of one study; scales do not carry over between parts.

Sample 1 — method: RNA Bind-n-Seq; form: RNA; matrix: in vitro; concentration: not given; relative to: input RNA pool; direction: higher = stronger binding
Target: RING finger protein unkempt homolog, zinc fingers 1-6, GST-SBP tag (UNK, Homo sapiens, UniProt Q9C0B0, residues 30-357)
Chain of UniProt Q9C0B0 (30-357, looked up): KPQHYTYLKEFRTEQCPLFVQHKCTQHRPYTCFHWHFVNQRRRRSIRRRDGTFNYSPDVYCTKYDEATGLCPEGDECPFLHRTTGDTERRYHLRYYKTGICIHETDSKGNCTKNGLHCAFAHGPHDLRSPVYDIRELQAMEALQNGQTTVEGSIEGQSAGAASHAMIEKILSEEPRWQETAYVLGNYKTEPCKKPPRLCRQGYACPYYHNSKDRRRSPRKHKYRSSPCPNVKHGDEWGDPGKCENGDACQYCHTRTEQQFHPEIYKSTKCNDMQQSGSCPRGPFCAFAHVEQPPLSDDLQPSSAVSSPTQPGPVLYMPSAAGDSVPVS
Notes: RNA with constant flanks, human and mouse sites, ends assumed
All sequences stand within: GGGAGUUCUACAGUCCGACGAUC … CAACAGAGGAUUGAGCAUCA
Strand | bound/input enrichment
UCUCUAAGAGGAAGACCUUCAAAUUUGGUUCAUACGACAACAGUUAUUAAGAGAGAUUUCUAGUAAUCUUCAGAUGUGAGGUUUUUUUUCUGCCAACAAAAGUCACAUUCAAAUUGUAUU | 0.898 ratio
GGCAGCGAACUGGUUUGUGGCCUGUUUGAUUCCUGUCAGAGGUUUGCUGACCCAAGACAGUAUCGAAAAUGCAUAUUAAGUCAAUUAUUCUAGAGGGAUUCAAGUCCUAUGCUCAGAGGA | 0.751 ratio
UUGGAAUAAAUGAGUGAAAGUUGGACAUAGUUGUGCACACCUUCAGACCAGCACUUGGGAGGUGGAGGCAGAAGAACAGGACUUCAAAGUUACUAGGCUUCAUAGUAAAUUUGAGGCCAA | 0.233 ratio
GCUAGAGAUCUGUUACACCCUUCCUUGGAGGAGGAGAAGAAAAAACAUAAGAAGAAACGGCUGGUUCAGAGCCCAAAUUCUUACUUCAUGGAUGUGAAAUGUCCAGGUUGCUACAAGAUU | 0.339 ratio
GUGUGCUCUGAGGGAGGGUCCGAGCCAGCCGCUGUUUUGCCGGAGGAGCCCCUCAGGCCGUAGUAAGCAUUAAUAAUGUCUUUCAUCUUUGAGUGGAUCUACAAUGGCUUCAGCAGUGUG | 0.25 ratio
CAAAACAUUUACCCAAAACCUGUUACAGAAAUAGCAAAGCCAGUAAUACUAAAUACCACACAAAUUCCAAAGAAUGUUGCUACAGAGACACAAUUGAAAGGUGGUCAGCAUUCUCAAGCU | 1.29 ratio
UCCCAGUACUAUCAGUAUUCUAGCAAUAAUCCCCGAAGGAGGCCUCUUCACAGUAGUGCCAUGGAGGUACAGACAAAGAAAGUUCGAAAAGUUCCUCCAGGUUUGCCAUCUUCAGUCUAU | 1.11 ratio
UCCUUCCCACAUCACAGGGCUACCUUGAGACUCUCCGAGAAGUUUAUCCUUCUCCUCAUCCUUAGUGCCUUCAUCACCCUGUGUUUUGGGGCAUUCUUCUUCCUUCCAGACUCUUCAAAA | 0.407 ratio
GUUCUUACCACUUCUCUUCCUCCUCACCCCAGAUACUUCCUCUUCCCCACAACCAAUGUACAUAGUAAUUGUAAUGUUUUAGACUUGACAGAAACUUUCCUGUAUUCUGUAUAUAAAAAC | 3.34 ratio
GAACCUCACUUUGUGGUAGUCCACUGCACAGGCUACAUCAAGGCCUGGCCACCAGCAGGUGUCUCCCUCCCAGAUGAUGACCCAGAGGCUGGCCAGGGGAGCAAAUUCUGCCUAGUGGCC | 0.21 ratio
CUGCAGCUAACGUCUCCCACUGACUACUCCAUUUUUGAUAACUAUUACAUCCCUGAAAUCACUAGUGUUUUGCUGUUGCGAUCCUGUAAGACUUUAACCCAUGAGAUCGGACACAUACUU | 0.645 ratio

Sample 2 — method: RNA Bind-n-Seq; form: RNA; matrix: in vitro; concentration: 365 nM; relative to: no-protein control; direction: higher = stronger binding
Target: RNA binding protein fox-1 homolog 2, RRM domain, GST-SBP tag (RBFOX2, Homo sapiens, UniProt O43251-10, residues 100-194)
Notes: natural RNA segment, single round, ends assumed
All sequences stand within: GGGAGUUCUACAGUCCGACGAUC … UGGAAUUCUCGGGUGCCAA
Construct (chain): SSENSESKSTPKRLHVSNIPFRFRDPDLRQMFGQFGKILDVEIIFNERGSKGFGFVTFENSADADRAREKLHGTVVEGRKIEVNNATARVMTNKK
Strand | RBNS enrichment (R)
GCAGAGGCAUAAUCCAGAUAAGUAGCAGAUGUCAUAUUUCAUAAGCUCUUUUGGCCUGGGUACAGCAGAAAACUAGCAGUUUUCCUACUUGGCGCAAGUGACUUGUGCCU | 0.323
CUAAUAUAAUCCAGACAGCAAUGGUGUUAGUAUUUUUGGUCUGUGUACCCACGUGCCCAUGUAUAUGUUUGUGUGUGUGUAUGUGUGAGUGUGUGUGUAUGUGUGUGUGU | 6.9
AUGCACAUGGUUAAUGCACAUGUUACUUUUAAAUCAUUAGGAUAUCCCUCACCUGUUCCUGAUGAAUAAAAAGUGUGUUAAAGACCAAAAUUCUUGGCAUAAUAAUCAGC | 0.465
GCUCUACGCGGCCCUGCCUGAGAGGCUCUACGUGAUACAGGAGGGCAGGAUCUGCUACAAGGGUAAAGCUGGCCCUUGGAACUACAAUCCUGAGGAAGUCCGAGCUGUCC | 0.295
AAAAAUGAAACAUUAUUUAGAAAACAAUGAGAUUACAAGUUCCAAACUCAGCCAGGAAUGUGGCUCACACCUGUAAUCCCAGCACUUUGGGACACCUAGGUGGGAGCAUC | 0.986
GUAUUCAUCUGAUUUUUAAAUUAUGUAAAAUGUAAAUCAGCCAAGUAUGUCAUCCGUUAUAGUUUCCCCAUGCUUUCAGCGCAUGGCCAUGAGAUUUUUACAUGUGCAUA | 0.376
UACAAAAAAGAAAAGACCAGUCCAUGAGGGAGGUUUUUAAGGGUUUGUGGAAAAUGAAAAUUAGGAUUUCAUGAUUUUUUUUUUUCAGUCCCCGUGAAGGAGAGCCCUUC | 0.72
UGUAUGUCUCUCUCUACACUGUGGUGCACUUAACUUGUGGAAUUUUUAUACUAAAAAUGUAGAAUAAAGACUAUUUUGAAGAUUUGAAUAAAGUGAUGAAGUUGCAUUAC | 0.373
CCAAAGAUGGGAUUAUUAAUCCAACUCUAGAAAGAGUCCAAAUCUUCAGCCCGUGUCUCAUACACUUGAAGAUGUCUAUAUUGAGUUUGAAGAGGUUAUAAAGGGACAGA | 0.298
CCAGAAGGCCCGGGGGUCUCCGAGGUGCCGGUUAGGAGUUUGAACCCCCCCCACUCUGCAGAGGGAAGCGGGGACAAUGCCGGGGUUUCAGGCAGGAGACACGAGGAGGG | 0.768
UAAAAUCAUGUUUGUGACUGUAACCAUUUGUAUGAAUUAUUUUAAAGAAAUAAAAAUCCUGGAAAGACCAGCGUGCCCAGCAUCUAUUCUGGUGACUUUCUCUCAUGAGG | 1.16
UUGUAUUUUAAAAUGAUGUAGUAUUCAACUUGUGAAGGGAUUUGUUUUGUCAAAAAAAAAAAAAAAUUAAAACUCAAUGUGUAUCAGCCCACAGAAGGGCAGGGGUCUGC | 1.27

Sample 3 — method: RNA Bind-n-Seq; form: RNA; matrix: in vitro; concentration: 20 nM; notes: 6-mer, flanks averaged, single round; with: 150 mM LiCl; relative to: input library; direction: higher = stronger binding
Target: TAR DNA-binding protein 43, full length, His tag (TARDBP, Homo sapiens, UniProt Q13148, residues 1-414)
Strand | 6-mer enrichment (R)
UAAAAG | 0.893
AUCGCA | 0.85
UGAUCG | 0.981
GGUAUC | 0.907
AGGAUA | 0.864
UCUAGG | 0.87
CGGUCC | 0.879
UAUUCG | 0.92
GUGUUC | 1.15
AGGUCU | 0.852
UCCGUG | 0.958
CCACGA | 0.834
CCGUUC | 0.875
CUUCAA | 0.836
GUAUGU | 1.81
GUCUUG | 1.07
ACCCUU | 1.08
CAUUAA | 0.894
AUCCAC | 0.86
UAGUUC | 0.883

Sample 4 — method: RNA Bind-n-Seq; form: RNA; matrix: in vitro; concentration: 200 nM; notes: whole 134-nt RNA, ends assumed; with: 150 mM KCl; relative to: input library; direction: higher = stronger binding
Target: Fragile X messenger ribonucleoprotein 1, C-terminal low-complexity region (Fmr1, Mus musculus, UniProt P35922)
All sequences stand within: GGGAGUUCUACAGUCCGACGAUC … UGGAAUUCUCGGGUGUCAAGG
Strand | log2 enrichment
AAGUCCUGUGCUACACAUCGUAUGUACCGAAUCAAACCCAAACCCCCAAACCCAAAAAAGUAUUAUGUUACGCCGUUCGGAUCUGCACUU | -0.292
AAGUCCUGUGCUACACAUCGUAUGUACCGAAUCGGGGAAAAGGGAAAAGGGAAAAGGAAAGUAUUAUGUUACGCCGUUCGGAUCUGCACU | -0.272
CAAGUCCUGUGCUACACAUCGUAUGUACCGAAUCGGGGAAAGGAAAGGGGAAAGGGAAAGUAUUAUGUUACGCCGUUCGGAUCUGCACUU | 0.47
CACAGACAACACGCACCCACACAGACACAGAGAAAAGGGGUUGGGAUGGGGACAGGGUGCACAGCAGGGCGGGGUAGGACCCCAGCCCCU | 1.23
UGGGAGGUGGAUUUUGUUUAUUUUUUUAGCUCAUUUCCAGGGGUGGGAAUUUUUUUUUAAUAUGUUUCAUGAAUAAAGUUGUUUUUGAAA | 0.0942
UCCUGUGCUACACAUCGUAUGUACCGAAUCGGGGCCCCCCGGGGCCCCCCGGCCCCCCGGAAAGUAUUAUGUUACGCCGUUCGGAUCUGC | -0.214
UCAAGUCCUGUGCUACACAUCGUAUGUACCGAAUCGGGAAAGGGUGGGUUUGGGAAAGUAUUAUGUUACGCCGUUCGGAUCUGCACUUCC | 1.26
AAGUCCUGUGCUACACAUCGUAUGUACCGAAUCAAAUUUAAACCCAAAUUUUUAAAAAAGUAUUAUGUUACGCCGUUCGGAUCUGCACUU | 0.0939
CAAGUCCUGUGCUACACAUCGUAUGUACCGAAUCGGUGGUUUUUUUGGAAAAAGGAAAGUAUUAUGUUACGCCGUUCGGAUCUGCACUUC | -0.623
ACCAUGCAGGUGGGCAUCUUUGGGAAGUGGGGCAAGGGGGGGAUAGGGAGGGGGGUAACACUUUGGGAACAGGUGGUCCCAGGAAAUUUC | 0.647
AGUUACUCAGUUCAUUUUGGAUAACUACAUUGAAAGAGGAAAAGGAUCUGCUUGCAGAAUAGUUUGUACUCAGCCAAGAAGAAUUAGUGC | -1.82
UAACUUUAGAGGAGGAUCUGAUGGAUAUGGCAGUGGACGUGGAUUUGGGGAUGGCUAUAAUGGGUAUGGAGGAGGACCUGGACGUGGCAA | 0.0332
CUCAAGUCCUGUGCUACACAUCGUAUGUACCGAAUCGGGUGGGUUUGGGAGGGAAAGUAUUAUGUUACGCCGUUCGGAUCUGCACUUCCA | 1.37
UCAAGUCCUGUGCUACACAUCGUAUGUACCGAAUCGGGGAAGGGAAGGGAAGGGGAAAGUAUUAUGUUACGCCGUUCGGAUCUGCACUUC | 0.7
